Experimental data gathered from unrelated publications.
Protocols differ between the studies behind these lines. ± marks the error that the study gave.

Structure (SMILES)	test	test system	conditions	quantity	value
C=CC(=O)N(C)CCOc1c(N)ncnc1-c1cc(F)cc(NC(=O)c2ccc(C3CC3)cc2F)c1C	–	human, whole blood	oral, 30 mg, single ascending dose	apparent clearance CL/F	523 L/h
NC(=O)N1c2ccccc2CC(=O)c2ccccc21	population PK modelling	human patients, plasma	oral, weight-scaled, no back-conversion	apparent clearance	133 L/h
CNC(=O)c1c(C)oc2cc(Oc3ncnc4cc(OC)c(OC)cc34)ccc12	population PK base model	human	–	apparent clearance (CL/F)	0.81 L/h
CC(C)(C)OC[C@@H]1C(=O)NCCN1C(=O)C[C@H](N)Cc1cc(F)c(F)cc1F	–	human, plasma	oral, dose not given, 2, compound alone	apparent oral clearance at steady state	55.1 ± 5.46 L/h
CNC(=O)c1ccc(N2C(=S)N(c3ccc(C#N)c(C(F)(F)F)c3)C(=O)C2(C)C)cc1F	population PK base model	human	–	apparent clearance	0.43 L/h
C[C@@]1(c2cc(NC(=O)c3ccc(C#N)cn3)ccc2F)C=CSC(N)=N1	–	elderly humans, both sexes, plasma	oral, 90 mg single dose, mean	apparent clearance CL/F	10.4 L/h
C[C@@H](Oc1ccc(S(C)(=O)=O)cc1C(=O)N1C[C@@H]2C[C@]2(c2cc(C(F)(F)F)on2)C1)C(F)(F)F	–	young healthy humans, plasma	oral, 50 mg once daily, multiple dosing	apparent clearance at steady state	114 mL/min
C=CC(=O)Nc1cc(Nc2ncc(C(=O)OC(C)C)c(-c3cn(C)c4ccccc34)n2)c(OC)cc1N(C)CCN(C)C	–	healthy human volunteers	oral, dose not given, capsule C vs capsules A and B	apparent peripheral volume	1120 L
Cc1nc(Nc2ncc(C(=O)Nc3c(C)cccc3Cl)s2)cc(N2CCN(CCO)CC2)n1	–	human patients, plasma	oral, dose not given, day 8, median of combined dose levels	apparent oral clearance	1980 mL/min/m²
NC[C@@]1(CC(=O)O)[C@@H]2CC[C@H]3C[C@@H]2[C@@H]1C3	–	human, moderate renal impairment, plasma	oral, 20 mg single dose, geometric mean	apparent clearance	5.1 L/h
N[C@@H]1c2cccnc2[C@H](OC(=O)N2CCC(n3c(=O)[nH]c4ncccc43)CC2)CC[C@H]1c1cccc(F)c1F	population PK model	human	oral	apparent clearance CL/F	24.1 L/h
O=C(Nc1nc2cccc(-c3ccc(CN4CCS(=O)(=O)CC4)cc3)n2n1)C1CC1	population PK model estimate	human	oral, dose not given	apparent peripheral volume	34.3 L
NC(N)=NCCC[C@@H](N)C(=O)N[C@@H](CCCN=C(N)N)C(=O)N1CCC[C@H]1C(=O)N1C[C@H](O)C[C@H]1C(=O)NCC(=O)N[C@@H](Cc1cccs1)C(=O)N[C@@H](CO)C(=O)N1Cc2ccccc2C[C@@H]1C(=O)N1[C@H](C(=O)N[C@@H](CCCN=C(N)N)C(=O)O)C[C@@H]2CCCC[C@@H]21	popPK base model typical value	human	subcutaneous, reference weight 70 kg	apparent clearance (CL/F)	14 L/h
CC[C@@H]1CN(C(=O)NCC(F)(F)F)C[C@@H]1c1cnc2cnc3[nH]ccc3n12	population PK modelling	human	oral, dose not given, final model, outliers re-estimated	apparent central volume (Vc/F)	156 L
Cn1cc(-c2cn3nccc3c(-c3cnn([C@]4(CC#N)C[C@@H](C#N)C4)c3)n2)cn1	–	healthy humans fasted, plasma	10 mg single dose, geometric mean	apparent clearance CL/F	27.1 L/h
CCCCC1=NC2(CCCC2)C(=O)N1Cc1ccc(-c2ccccc2S(=O)(=O)Nc2noc(C)c2C)c(COCC)c1	–	healthy adult human volunteers	oral, 400 mg daily, 14 days multiple dosing	apparent clearance (CL/F)	~6.3 L/h
OC[C@H]1O[C@@H](c2ccc(Cl)c(Cc3ccc(O[C@H]4CCOC4)cc3)c2)[C@H](O)[C@@H](O)[C@@H]1O	population pharmacokinetic model	human	–	apparent oral clearance	10.6 L/h
